{"data": "Experimental data of several laboratories", "note": "Each line is one published result; not all experiments were run side by side. ± marks the error that the study gave."}
{"SMILES": "CCc1c(C(=O)C(N)=O)c2c(OCC(=O)O)cccc2n1Cc1ccccc1", "organism": "Daboia russelii", "test system": "C2C12", "setting": "100 µM, with: Daboia russelii venom KL", "scale": "baseline: venom alone", "measurement": "viability difference", "result": "-64.1%"}
{"SMILES": "O=C(O)COCCN1CCN(C(c2ccccc2)c2ccc(Cl)cc2)CC1 (centres unmarked)", "organism": "Marburg virus", "assay": "pseudovirus entry", "test system": "A549", "scale": "baseline: CC50 over IC50", "measurement": "selectivity index", "result": 1}
{"SMILES": "CNC(=O)[C@@H](NC(=O)[C@H](CC(C)C)[C@H](O)C(=O)NO)C(C)(C)C", "organism": "Daboia russelii", "test system": "mouse", "setting": "intravenous, 120 µg/mouse, 24 h, drug mixture, with: venom 2.5 x LD50 preincubated", "measurement": "survival", "result": "60%"}
{"SMILES": "Cn1c(=O)ccc2ccc(F)c(CCNC[C@H]3CN(c4cnc5c(n4)NC(=O)CO5)C(=O)O3)c21", "organism": "Yersinia pestis", "assay": "microbial growth", "measurement": "MIC50", "result": "< 0.015 µg/mL"}
{"SMILES": "COc1cc2c(OCCCC#N)c3c(c(-c4ccc5c(c4)OCO5)c2cc1OC)C(=O)OC3", "organism": "VSV pseudotyped with Ebola virus GP", "assay": "viral entry, refers to: GFP", "test system": "HeLa", "measurement": "IC50", "result": "0.0931 ± 0.0268 µM"}
{"SMILES": "CC1CCCN(CCCNC(=O)c2cc(Sc3ccc(F)cc3)nc3ccccc23)C1 (centres unmarked)", "organism": "SARS-CoV-2", "assay": "cytopathic effect", "test system": "USA_WA1/2020", "setting": "first round 5-point", "measurement": "maximum response", "result": "97.6%"}
{"SMILES": "c1ccc2nc(N3CCCC(c4nccn4CC4CCC4)C3)ccc2c1 (centres unmarked)", "organism": "Lassa mammarenavirus", "assay": "viral replication", "test system": "Huh-7", "setting": "10 µM, 72 h", "measurement": "remaining activity", "result": "29%"}
{"SMILES": "O=C(NCCCN1CCCCCC1)c1ccc2c(c1)sc1nc(-c3ccccc3)cn12", "organism": "SARS-CoV-2", "assay": "cytopathic effect", "test system": "USA_WA1/2020", "setting": "retest, 8-point, duplicates", "measurement": "maximum response", "result": "70.6%"}
{"SMILES": "CN1CCN(CCCN2c3ccccc3Sc3ccc(C(F)(F)F)cc32)CC1", "organism": "SARS-CoV-2", "assay": "viral replication, GFP plate reader screen", "setting": "cell-based", "measurement": "EC50", "result": "6.46 µM"}
{"SMILES": "Nc1ncnc2c([C@@H]3N[C@H](CO)[C@@H](O)[C@H]3O)c[nH]c12", "organism": "Middle East respiratory syndrome-related coronavirus", "assay": "viral replication", "test system": "Vero C1008, Jordan N3", "setting": "100 µM", "measurement": "inhibition", "result": "64.6%"}
{"SMILES": "CCN(CC)Cc1ccc(Nc2ccnc3cc(Cl)ccc23)cc1O", "organism": "SARS-CoV-2", "assay": "cytopathic effect, cell-based CPE", "test system": "USA_WA1/2020", "setting": "round 2, 5-point dilution", "measurement": "AC50", "result": "8.91 µM"}
{"SMILES": "CC(C)=CCc1c(O)ccc(C(=O)/C=C/c2ccc(O)cc2)c1O", "organism": "SARS-CoV-2", "assay": "viral cytopathic effect", "test system": "Vero E6", "setting": "6.25 µM", "measurement": "mean inhibition", "result": "0%"}
{"SMILES": "Nc1ccc2cc3ccc(N)cc3nc2c1", "organism": "SARS-CoV-2", "assay": "viral replication, GFP plate reader screen", "setting": "cell-based", "measurement": "EC50", "result": "15 µM"}
{"SMILES": "O=C(Nc1ncc(Cc2cccc3ccccc23)s1)C(F)(F)F", "organism": "Histoplasma capsulatum", "assay": "microbial growth", "measurement": "MIC", "result": "> 20 µM"}
{"SMILES": "CC(CN(C)C)CN1c2ccccc2Sc2ccccc21 (centres unmarked)", "organism": "SARS-CoV-2", "assay": "viral replication, high-content imaging screen", "setting": "cell-based", "measurement": "EC50", "result": "> 25.1 µM"}
{"SMILES": "O=C(NC1CCCCC1)C(c1cccs1)N(Cc1ccc2c(c1)OCO2)C(=O)Cc1c[nH]c2ccccc12 (centres unmarked)", "organism": "Rickettsia canadensis", "assay": "bacterial growth", "test system": "Vero", "measurement": "IC90", "result": "11 µM"}
{"SMILES": "CN1CCCC(n2nc(Cc3ccc(Cl)cc3)c3ccccc3c2=O)CC1 (centres unmarked)", "organism": "SARS-CoV-2", "assay": "viral replication, GFP plate reader screen", "setting": "cell-based", "measurement": "EC50", "result": "13.3 µM"}
{"SMILES": "COc1ccc(CCNC(=O)c2cc(Nc3ccccc3)nc3ccccc23)cc1OC", "organism": "SARS-CoV-2", "assay": "cytopathic effect", "test system": "USA_WA1/2020", "setting": "round 1, 5-point", "measurement": "efficacy", "result": "52.1%"}
{"SMILES": "O=C(Nc1ccc(N2CCN(C(=O)c3cnccn3)CC2)nc1)c1ccc(Br)cc1", "organism": "Mycobacterium tuberculosis", "assay": "bacterial growth", "test system": "H37Ra-lux", "setting": "168 h", "measurement": "IC90", "result": "40.3 µM"}
{"SMILES": "CN(C)c1cccc(C(=O)N2CCC3(CCCN(CCc4ccccc4)C3)C2)c1 (centres unmarked)", "organism": "Lassa mammarenavirus", "assay": "viral replication", "test system": "Huh-7", "setting": "10 µM, 72 h", "measurement": "remaining activity", "result": "0%"}
{"SMILES": "COC(=O)[C@@H](N)COP1(=O)CO[C@@H](Cn2cnc3c(N)ncnc32)CO1 (some centres unmarked)", "organism": "vaccinia virus", "assay": "viral replication", "measurement": "IC50", "result": "25 µM"}
{"SMILES": "O=C(NCC1CCOC2(CCN(C(=O)C3(c4ccccc4)CCCC3)CC2)C1)C1CCCCC1 (centres unmarked)", "organism": "Venezuelan equine encephalitis virus", "assay": "viral replication", "measurement": "EC50", "result": "25.1 µM"}
{"SMILES": "COc1ccc(-c2cn3c(n2)sc2cc(C(=O)NCCCN4CCCCCC4)ccc23)cc1", "organism": "SARS-CoV-2", "assay": "cytopathic effect", "test system": "USA_WA1/2020", "setting": "round 2, 5-point", "measurement": "efficacy", "result": "78.5%"}
{"SMILES": "Cc1nc2n(n1)CC(=O)N[C@@H](C(C)C)CN(C(=O)CC1CCCC1)CC(=O)N[C@@H](CC(C)C)c1nc(cs1)C(=O)N[C@H]2Cc1ccccc1", "organism": "Lassa mammarenavirus", "assay": "viral replication", "test system": "Huh-7", "setting": "10 µM, 72 h", "measurement": "remaining activity", "result": "98%"}
{"SMILES": "O=C(Nc1nc(-c2ccccn2)cs1)c1ccc(F)cc1", "organism": "Mycobacterium tuberculosis", "assay": "microbial growth, broth dilution", "test system": "H37RV", "measurement": "MIC", "result": "0.098 to 0.19 µM"}
{"SMILES": "Cc1[nH]c(/C=C2\\C(=O)Nc3ccccc32)c(C)c1CCC(=O)O (single isomer, unassigned)", "organism": "SARS-CoV-2", "assay": "viral replication, high-content imaging screen", "test system": "BetaCov/Belgium/GHB-03021/2020", "setting": "cell-based", "measurement": "EC50", "result": "> 50.1 µM"}
{"SMILES": "Cc1ccnc(NCCNc2nc(C(C)(C)C)nc3c2cnn3C)c1", "organism": "Lassa mammarenavirus", "assay": "viral replication", "test system": "Huh-7", "setting": "10 µM, 72 h", "measurement": "remaining activity", "result": "1%"}
{"SMILES": "CN(C)CCCn1cc(-c2ccccc2)c(-c2ccccc2)n1", "organism": "SARS-CoV-2", "assay": "viral replication, high-content imaging screen", "setting": "cell-based", "measurement": "EC50", "result": "> 100 µM"}
{"SMILES": "O=C(O[C@@H]1Cc2c(O)cc(O)cc2O[C@@H]1c1cc(O)c(O)c(O)c1)c1cc(O)c(O)c(O)c1", "organism": "SARS-CoV-2", "assay": "viral replication", "test system": "Vero E6", "setting": "50 µM", "measurement": "CPE inhibition", "result": "90%"}
{"SMILES": "Cc1ccnc(CC(C)N(C)C(=O)c2cc3cnccc3nc2C)c1 (centres unmarked)", "organism": "Lassa mammarenavirus", "assay": "viral replication", "test system": "Huh-7", "setting": "10 µM, 72 h", "measurement": "remaining activity", "result": "26%"}
{"SMILES": "CN1CCCC(CN2c3ccccc3Sc3ccccc32)C1 (centres unmarked)", "organism": "SARS-CoV-2", "assay": "viral replication, high-content imaging screen", "setting": "cell-based", "measurement": "EC50", "result": "> 100 µM"}
{"SMILES": "COc1cccc(-c2ccccc2NC(=O)C2CCN(Cc3ccccc3F)CC2)c1", "organism": "SARS-CoV-2", "assay": "cytopathic effect", "test system": "USA_WA1/2020", "setting": "round 1, 5-point", "measurement": "efficacy", "result": "99%"}
{"SMILES": "Cc1ccc(CN2CCN(C)C(=O)[C@H](C)NC(=O)CN(C)C(=O)[C@@H](Cc3c[nH]c4ccccc34)NC(=O)c3csc(n3)[C@H](CC(C)C)NC(=O)C2)cc1", "organism": "Lassa mammarenavirus", "assay": "viral replication", "test system": "Huh-7", "setting": "concentration not given", "measurement": "Emax", "result": "98.6%"}
{"SMILES": "CCC1CCCCN1CCCNC(=O)c1sc2nc(C)cc(C)c2c1-n1cccc1 (centres unmarked)", "organism": "SARS-CoV-2", "assay": "cytopathic effect", "test system": "USA_WA1/2020", "setting": "retest, 8-point, duplicates", "measurement": "maximum response", "result": "53.2%"}
{"SMILES": "COc1nccnc1-c1c(C)cc(C)cc1C", "organism": "Lassa mammarenavirus", "assay": "viral replication", "test system": "Huh-7", "setting": "10 µM, 72 h", "measurement": "remaining activity", "result": "42%"}
{"SMILES": "Cc1ccc2nc(Cl)c3cc(C(=O)NCCCN4CCC(C)CC4)sc3c2c1", "organism": "SARS-CoV-2", "assay": "cytopathic effect", "test system": "USA_WA1/2020", "setting": "round 2, 5-point", "measurement": "efficacy", "result": "70.7%"}
{"SMILES": "Cc1nc2n(n1)CC(=O)N[C@@H](C(C)C)CN(C(=O)CO)CC(=O)N[C@@H](CC(C)C)c1nc(cs1)C(=O)N[C@H]2Cc1ccccc1", "organism": "Lassa mammarenavirus", "assay": "viral replication", "test system": "Huh-7", "setting": "10 µM, 72 h", "measurement": "remaining activity", "result": "105%"}
{"SMILES": "COc1cc2c3cc1Oc1c(OC)c(OC)cc4c1[C@@H](Cc1ccc(O)c(c1)Oc1ccc(cc1)C[C@@H]3N(C)CC2)N(C)CC4", "organism": "SARS-CoV-2", "assay": "viral replication, high-content imaging screen", "setting": "cell-based", "measurement": "EC50", "result": "> 6.31 µM"}
{"note": "Repeated from above:"}
{"SMILES": "O=C(O)COCCN1CCN(C(c2ccccc2)c2ccc(Cl)cc2)CC1 (centres unmarked)", "organism": "Marburg virus", "assay": "pseudovirus entry", "test system": "A549", "scale": "baseline: CC50 over IC50", "measurement": "selectivity index", "result": 1}
{"SMILES": "CNC(=O)[C@@H](NC(=O)[C@H](CC(C)C)[C@H](O)C(=O)NO)C(C)(C)C", "organism": "Daboia russelii", "test system": "mouse", "setting": "intravenous, 120 µg/mouse, 24 h, drug mixture, with: venom 2.5 x LD50 preincubated", "measurement": "survival", "result": "60%"}
{"SMILES": "Cn1c(=O)ccc2ccc(F)c(CCNC[C@H]3CN(c4cnc5c(n4)NC(=O)CO5)C(=O)O3)c21", "organism": "Yersinia pestis", "assay": "microbial growth", "measurement": "MIC50", "result": "< 0.015 µg/mL"}
{"SMILES": "COc1cc2c(OCCCC#N)c3c(c(-c4ccc5c(c4)OCO5)c2cc1OC)C(=O)OC3", "organism": "VSV pseudotyped with Ebola virus GP", "assay": "viral entry, refers to: GFP", "test system": "HeLa", "measurement": "IC50", "result": "0.0931 ± 0.0268 µM"}
{"SMILES": "CC1CCCN(CCCNC(=O)c2cc(Sc3ccc(F)cc3)nc3ccccc23)C1 (centres unmarked)", "organism": "SARS-CoV-2", "assay": "cytopathic effect", "test system": "USA_WA1/2020", "setting": "first round 5-point", "measurement": "maximum response", "result": "97.6%"}
{"SMILES": "c1ccc2nc(N3CCCC(c4nccn4CC4CCC4)C3)ccc2c1 (centres unmarked)", "organism": "Lassa mammarenavirus", "assay": "viral replication", "test system": "Huh-7", "setting": "10 µM, 72 h", "measurement": "remaining activity", "result": "29%"}
